Results from different studies.
A part holds a random share of what one study measured.

Block 1 — method: RNA Bind-n-Seq; molecule type: RNA; sample: in vitro; tested at: 200 nM; setting: whole 134-nt RNA, ends assumed; added: 150 mM LiCl; baseline: input library; direction: higher = stronger binding; all molecules: 7-deaza-guanosine replaces G
Target: Ras GTPase-activating protein-binding protein 1, full length (G3BP1, Homo sapiens, UniProt Q13283)
Sequence of UniProt Q13283 (whole entry, looked up): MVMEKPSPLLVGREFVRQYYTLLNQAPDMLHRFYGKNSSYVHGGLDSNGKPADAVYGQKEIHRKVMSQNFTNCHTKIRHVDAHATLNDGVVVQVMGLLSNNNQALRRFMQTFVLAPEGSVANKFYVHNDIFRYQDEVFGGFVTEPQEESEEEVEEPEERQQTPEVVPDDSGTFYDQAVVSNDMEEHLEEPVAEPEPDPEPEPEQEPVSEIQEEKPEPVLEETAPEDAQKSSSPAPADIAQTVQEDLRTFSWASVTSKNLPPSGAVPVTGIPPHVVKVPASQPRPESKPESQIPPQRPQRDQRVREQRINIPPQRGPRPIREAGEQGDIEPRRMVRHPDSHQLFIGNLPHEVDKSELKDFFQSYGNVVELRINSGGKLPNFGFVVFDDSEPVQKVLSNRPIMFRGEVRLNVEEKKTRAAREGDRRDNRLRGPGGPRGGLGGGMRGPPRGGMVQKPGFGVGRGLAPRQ
| Strand | log2 enrichment |
| --- | --- |
| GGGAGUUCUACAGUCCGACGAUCGUCCUGUGCUACACAUCGUAUGUACCGAAUCGGGGAGGGGUUUUUGGGGAAAAAGGGGAAAGUAUUAUGUUACGCCGUUCGGAUCUGCACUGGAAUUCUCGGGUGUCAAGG | 0.309 |
| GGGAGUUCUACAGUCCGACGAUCAGUCCUGUGCUACACAUCGUAUGUACCGAAUCGGGUGGGUUUUUUUGGGUUUUUGGGAAAGUAUUAUGUUACGCCGUUCGGAUCUGCACUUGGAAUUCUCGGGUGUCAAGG | -0.218 |
| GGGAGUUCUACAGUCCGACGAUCCAAGUCCUGUGCUACACAUCGUAUGUACCGAAUCGGUUUGGAAAAAAAGGUUUGGAAAGUAUUAUGUUACGCCGUUCGGAUCUGCACUUCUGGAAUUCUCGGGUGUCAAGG | -2.55 |
| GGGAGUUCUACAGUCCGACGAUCUUAGGAAGAGAAGACAAGGUGGCCUCUCAUUAGAAGAAGAGGAAGAGGAGGAUGCCAAUUCAGAAUCUGAGGGAAGCAGUAGUGAGGAGGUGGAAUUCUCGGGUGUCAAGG | -1.38 |
| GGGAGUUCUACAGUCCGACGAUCCUCAAGUCCUGUGCUACACAUCGUAUGUACCGAAUCGGGGCCGGGCCGGGCCGGAAAGUAUUAUGUUACGCCGUUCGGAUCUGCACUUCCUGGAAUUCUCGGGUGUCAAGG | 0.7 |

Block 2 — method: protein-binding microarray; molecule type: double-stranded DNA, one strand shown; sample: in vitro; tested at: 250 nM; setting: 60-bp whole probe; added: salmon DNA 0.4 mg/ml; baseline: random background probes; direction: higher = stronger binding; constant ends, left off below: GCCTAGCAC … GTCTTGATTCGCTTGACGCTGCTG
Target: Interferon regulatory factor 7, full length, phosphomimetic (IRF7, Homo sapiens, UniProt Q92985, residues 1-503, S101K/S471D/S472D/S475D/S476D/S477D/S483D/S484D/S487D)
Construct (chain): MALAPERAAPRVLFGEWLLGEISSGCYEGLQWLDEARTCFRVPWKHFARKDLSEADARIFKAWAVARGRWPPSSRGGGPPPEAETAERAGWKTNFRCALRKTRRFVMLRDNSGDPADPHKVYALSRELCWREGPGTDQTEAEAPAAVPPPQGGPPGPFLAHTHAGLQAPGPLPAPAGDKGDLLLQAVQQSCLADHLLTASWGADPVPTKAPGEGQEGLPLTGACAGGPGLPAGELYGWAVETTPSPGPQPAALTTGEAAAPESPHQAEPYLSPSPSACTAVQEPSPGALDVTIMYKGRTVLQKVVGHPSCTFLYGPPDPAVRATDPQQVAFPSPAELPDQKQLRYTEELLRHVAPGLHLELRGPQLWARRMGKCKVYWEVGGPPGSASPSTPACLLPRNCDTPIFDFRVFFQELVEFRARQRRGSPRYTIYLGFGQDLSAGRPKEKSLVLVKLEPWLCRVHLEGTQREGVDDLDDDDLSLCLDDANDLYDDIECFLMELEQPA
| Strand | log fluorescence [z-score] |
| --- | --- |
| GACGGTATCCTACTGCTGGCGTGCTAG | -0.232 |
| TTAGGTATCGGGTATCGGTTCGTGCTA | 2.76 |
| GAAGGTTTCGGTATCGGGACGTGCTAG | 10.2 |
| TTAGATTCCGGTTTCGGTTAGTGCTAG | 10.4 |
| TTAGAACTGATTATCGATTAGTGCTAG | 0.233 |
| TCAATTTTTAGTTAGAAACTGTGCTAG | 0.214 |
| GACGGCATCCTTATCCTGACGTGCTAG | -0.379 |
| TCAAACATCTACAATGGCACTGTGCTA | -0.303 |
| GAAGGTTTCCTTATCCTGACGTGCTAG | 2.85 |
| AACGGTTTCGGACTGGGGACGTGCTAG | 4.26 |
| GACGATTTCAATCTCGAGACGTGCTAG | 0.447 |
| GACGGTATCCGGACTGGGGACGTGCTA | -0.344 |

Block 3 — method: Sort-seq; item: YFP reporter; sample: E. coli; setting: PhoQ-PhoP variant library; added: 10 µM Mg2+; baseline: high Mg2+ state; direction: higher = stronger signaling
Substance: PhoQ, residues 284 288 289 292 302 303 SQSLSM
| target | fold induction |
| --- | --- |
| PhoP, residues 12 14 15 18 19 TPWTL (Escherichia coli, UniProt P23836) | 1.05 |
| PhoP, residues 12 14 15 18 19 LHHYF (Escherichia coli, UniProt P23836) | 6.22 |
| PhoP, residues 12 14 15 18 19 VGHWL (Escherichia coli, UniProt P23836) | 6.69 |
| PhoP, residues 12 14 15 18 19 NFFVT (Escherichia coli, UniProt P23836) | 12.1 |

Block 4 — method: protein binding microarray; molecule type: double-stranded DNA, one strand shown; sample: in vitro; tested at: not given; baseline: not given; direction: higher = stronger binding
Target: Histone acetyltransferase KAT6A, both winged helices, GST fusion (KAT6A, Homo sapiens, UniProt Q92794, residues 1-181)
Setting: 8-mer, flanks averaged, mean of 2 arrays, mostly near background
Residues (chain): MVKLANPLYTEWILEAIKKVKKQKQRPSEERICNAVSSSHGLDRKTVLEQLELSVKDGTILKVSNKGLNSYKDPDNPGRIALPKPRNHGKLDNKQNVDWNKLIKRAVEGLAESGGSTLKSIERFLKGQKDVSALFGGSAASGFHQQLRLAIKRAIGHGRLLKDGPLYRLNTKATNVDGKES
| Strand | E-score |
| --- | --- |
| ATCAAAGA | -0.0745 |
| AATGCATA | -0.0359 |
| AGATTCAA | -0.146 |
| GTAGCCCA | -0.155 |
| AGCTCATA | -0.00198 |
| AAGAAACG | -0.0191 |
| CTATCAAG | -0.229 |
| ATTAGCTG | -0.182 |
| GAATTTAA | -0.101 |
| CCGTCACA | 0.18 |
| AATCTCAA | -0.135 |
| CGGGTTAG | 0.188 |
| TGCGGACA | 0.181 |
| GGAAACTA | -0.0226 |
| CGGCTCGC | 0.2 |
| CCCCCATA | -0.218 |

Repeated from above (block 2):
| Strand | log fluorescence [z-score] |
| --- | --- |
| TCAATTTTTAGTTAGAAACTGTGCTAG | 0.214 |
| GAAGGTTTCGGTATCGGGACGTGCTAG | 10.2 |
| TTAGAACTGATTATCGATTAGTGCTAG | 0.233 |
| GACGGTATCCTACTGCTGGCGTGCTAG | -0.232 |
